Results of several laboratories.
Each numbered part is a random draw from the data of one study; scales do not carry over between parts. Changes are numbered by the printed parent chain.

Block 1
Target: CCNB1, cyclin fold, Cln2 fusion (human)
Technique: yeast growth competition, sequencing
Matrix: yeast
Notes: weak parent motif
Relative to: not given
Reading: higher = stronger binding
Parent: CDKN1B docking peptide (human); PSACRNLFGPVDH
Change	normalised enrichment score
G9P	0.2
D12M	0.358
P1A	0.397
N6M	0.535
S2R	0.664
V11T	0.263
L7H	0.751
V11G	-0.0729
P10Q	0.986
F8C	-0.117
A3S	0.572

Block 2
Target: Centromere-binding protein 1, full length, N-terminal tag (CBF1, Saccharomyces cerevisiae, UniProt P17106, residues 1-351)
Sequence of UniProt P17106 (whole entry, looked up): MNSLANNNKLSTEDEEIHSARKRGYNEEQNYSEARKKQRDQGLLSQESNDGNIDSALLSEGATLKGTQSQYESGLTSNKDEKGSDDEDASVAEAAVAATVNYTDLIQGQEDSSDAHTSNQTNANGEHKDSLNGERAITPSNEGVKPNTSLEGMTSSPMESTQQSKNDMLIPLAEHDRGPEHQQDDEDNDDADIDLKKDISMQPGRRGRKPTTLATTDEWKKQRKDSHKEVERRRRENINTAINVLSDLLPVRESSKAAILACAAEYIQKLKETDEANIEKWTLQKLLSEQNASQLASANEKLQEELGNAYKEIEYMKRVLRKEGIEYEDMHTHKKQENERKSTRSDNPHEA
Technique: protein-binding microarray
Molecule type: double-stranded DNA, one strand shown
Matrix: in vitro
Concentration: 0.8 µM
Notes: whole 60-bp probe, no competitor
Reading: higher = stronger binding
Shared flanks, not repeated: … GTCTTGATTCGCTTGACGCTGCTG
Strand	fluorescence intensity
CTAACCCAACTTTACCACCAGGGCACACTTCTTTTC	509 a.u.
GAAGAAGCTAGGGAGCTCACCCGCGATATTCTGTAG	490 a.u.
CCTAACTACTATATTCCCGTGGAATAGCTTCGTACA	514 a.u.
GAAGCAGAATTTGTCCGTGCGCACATTTGCGTGTAG	561 a.u.
GAAATTATGACCGGTGACGAAACGTGGTCGATGTAG	674 a.u.
TGTACGAAGCTATGTGGTGTTACTATAGTAGTTAGG	500 a.u.
GAAACTGGCTGAGATCACGTGAATGGCTAATTATAG	17100 a.u.
CTACGTTGCTAACATCATGTTAGTCTGACAAGTTTC	555 a.u.
GAAGATGCGGTAATTCAACACGTGAATTTCAGCTAG	2990 a.u.
GAAAAGCGACATTACCTCGTGTATTTAGTATTTTAG	561 a.u.
GAAGTGTTTCTTTCTGATGCTACATAGAAGAACTAG	585 a.u.
GAAACCCAGCTGGGACATGTGAATAAGTCTCAATAG	660 a.u.
CTACATTGCTAGTGTCACGTTCAGAAAACGAGATTC	1430 a.u.
GAACTGGAGTAAAGTCAGCTGTCCTGTCACCCTTAG	791 a.u.
GAAAATTTCCTCTACGTGATGGTTGTATGTAAATAG	626 a.u.
CCTAACTACTATACAGGTGTAATATAGCTTCGTACA	548 a.u.
CTAGCAAAAAGATTTCACGTTGTTCGGGAGGTATTC	582 a.u.

Block 3
Target: RNA binding protein fox-1 homolog 2, RRM domain, GST-SBP tag (RBFOX2, Homo sapiens, UniProt O43251-10, residues 100-194)
Technique: RNA Bind-n-Seq
Molecule type: RNA
Matrix: in vitro
Concentration: 365 nM
Notes: natural RNA segment, single round, ends assumed
Relative to: no-protein control
Reading: higher = stronger binding
Shared flanks, not repeated: GGGAGUUCUACAGUCCGACGAUC … UGGAAUUCUCGGGUGCCAA
Strand	RBNS enrichment (R)
CACAAAGCAGCCUGCGUGCAUUCUUUGAGGUGAGCAUUUAAUCACACACUUGAUGACAUUACAAAGCUAAACCAUGCCUCUUGGUAAAGCUGCUUGAUUACAAGUGCCAG	0.433
AACCCCUGAGGAAGAUGGGGGCAAGAAGAUCACGCUCCCCGCCUGUUCCCCCGCCGCUUUUCUCCUCUUUCCUCUCUUUGUUCUCAGCUCCCCCUGUCCCCUCAGCUCCA	1.11
ACUUAUCCCCUACAAUAUUCUCCCACUCCAUACUUCUCCUUCUACCCCACCAUGUGCUCCCGUGCACUCCUCAGAUGGUCAGAGGGGUAACCCAAGUCCUUAGAGAAUUU	0.705
UUUUUAAUUGGUGUUAGAUGACAUGAUUAAUAAAAAAGGCAAGAUAUUUUCAGAAUUUGAAUUUCAGUUUUUUUUUCUUUUGAAAUAGCCCUUUUAAAUUUUUUUAUUAU	1.63
CCAAAGAGUUUUCUGUGCAAAAUCUUGAGAAUCAAUCAAUAAAGAAAGAUGGAAGGAAGGGAGAAAUUGGAAUGUUUUAACUGCAGCCCUCAGAACUUUAGUAACAGCAC	0.446
GGCAGUUGUGCCAACCCAAGGGCUCUUUCAUUGUUCGUUGGCUUCUGUCUUUAAAGCCAAGAAAGUAGUAAUUAAGUAGCCUAGAUUUAAGGAGGGUAGAAUAAGCAUUU	0.573
UUUGUACGUAUGAAUGAUAUCUUUGACCUCAAUGGAGGUUUGCAAAGACUGAGUGUUCAAACUACUGUACAUUUUUUUUCAAGUGCUAAAAAAUUAAACCAAGCAGCUUA	0.536
AGAGUAGGGAGCCAGGGGGUGCUACAAAAAUAGAAUUCUGUACCCCAGUAAUCAACUAGUUUUCUAUUAAUGUGCUUGUCUGUUCUAAGAGUAGGAUUAACACAGGGGAA	0.46
CCAUUCUCACCUAUCCACACAACAUAUCCGUAUAUAUCCCCUCUACUCUUACUUCCCCCAAAUUUAAAGAAGUAUGGGAAAUGAGAGGCAUUUCCCCCACCCCAUUUCUC	1.27
AGCAAAAUUGUGCUAAAGGCUUUUCUACUCUGAGAUCUCAAUGCGAAAUGAAAACUCAGGCAGUUUAGUCCAUAGUGGUACUAUUUUGAUGAUAUUUUCCAUUAAUAAAA	0.363
CCACCUCCCACUGGGCACCCCCCAACACGGUGUCCUGCCACCCAGCGCCUGGCUCCAGGAAAACACGUUGCCUUCCUUCCCGGCAGCUUCGCCACUCUCCUUAUGGACUC	0.459
GGGUUCCCCAGAGUCUUCCUAGGUAUCUCUGGGAACCAGCAGAAGGAAUUUUCACCUAAGAGGGAUAACUUGUUGCUUCCAAUGAAUGGCUCCCACUCUCGUGGGUGCAA	0.368

Single results of other studies
Molecule	target	test	test system	setting	how to read	measurement	result
PhoQ, residues 284 288 289 292 302 303 SQSLSM	PhoP, residues 12 14 15 18 19 AQCLL (Escherichia coli, UniProt P23836)	Sort-seq, item: YFP reporter	E. coli	PhoQ-PhoP variant library, with: 10 µM Mg2+	relative to: high Mg2+ state, higher = stronger signaling	fold induction	4.12
